{"data": "Experimental data from different studies", "CatSper channel complex": "CatSper channel complex (Homo sapiens, UniProt Q7RTX7+Q86XQ3+Q8NEC5+Q96P56)", "FAAH": "Fatty-acid amide hydrolase 1 (FAAH, Homo sapiens, UniProt O00519)", "note": "Lines come from different studies, so protocols differ. ± gives the spread as reported."}
{"SMILES": "N#Cc1c(F)c(F)c2c(N)nc(SCc3ccc4ccccc4c3)nc2c1F", "target": "M-phase inducer phosphatase 2 (CDC25B, Homo sapiens, UniProt P30305)", "assay": "enzyme activity, inhibitor, fluorescence", "IC50": "2140 nM"}
{"SMILES": "O=C(O)c1ccc(Cn2sc3ccccc3c2=O)cc1", "target": "Histone deacetylase 9 (HDAC9, Homo sapiens, UniProt Q9UKV0)", "assay": "enzyme activity, inhibitor", "IC50": "4600 nM"}
{"SMILES": "Cn1cccc1C(=O)N1CCN(c2ccc(NC(=O)C(Cl)Cl)c(N3CCCCCC3)c2)CC1", "target": "Retinal dehydrogenase 2 (ALDH1A2, Homo sapiens, UniProt O94788)", "assay": "enzyme activity, inhibitor, mass spectrometry", "IC50": "18000 nM"}
{"SMILES": "O=C(NCCc1ccccn1)[C@@H]1Cc2ccccc2CN1S(=O)(=O)c1ccc2ccccc2c1", "target": "Sodium channel protein type 5 subunit alpha (SCN5A, Homo sapiens, UniProt Q14524)", "assay": "ion current, inhibitor, patch clamp", "IC50": "> 30000 nM"}
{"SMILES": "O=C(c1ccc2cc[nH]c2c1)N1CCC(O)(c2ccc(Cl)cc2)CC1", "target": "CatSper channel complex", "assay": "calcium influx, inhibitor, FLIPR", "test system": "human sperm", "setting": "with: 3 µM progesterone", "IC50": "> 100000 nM"}
{"SMILES": "CC(C)C[C@H](NC(=O)[C@H](CC(N)=O)NC(=O)[C@H](CC(C)C)NC(=O)[C@@H](NC(=O)[C@@H](NC(=O)[C@@H]1CCCN1C(=O)[C@H](CCCNC(=N)N)NC(=O)[C@H](CCCCN)NC(=O)[C@@H]1CCCN1)[C@@H](C)O)[C@@H](C)O)C(=O)N[C@@H](Cc1ccccc1)C(=O)NCCCCCC(=O)N[C@@H](CCCNC(=N)N)C(=O)N[C@@H](CCCNC(=N)N)C(=O)N[C@@H](CCCNC(=N)N)C(=O)N[C@@H](CCC(N)=O)C(=O)N[C@@H](CCCNC(=N)N)C(=O)N[C@@H](CCCNC(=N)N)C(=O)N[C@@H](CCCCN)C(=O)N[C@@H](CCCCN)C(=O)N[C@@H](CCCNC(=N)N)C(=O)NCC(N)=O", "target": "Mitogen-activated protein kinase 1 (Mapk1, Rattus norvegicus, UniProt P63086)", "assay": "enzyme activity, inhibitor, radiometric", "setting": "pH 7.5", "IC50": "161000 nM"}
{"SMILES": "COc1ccc(CN(CCCCCCC(=O)NO)Cc2ccc(OC)c(OC)c2)cc1OC", "target": "Histone deacetylase 8 (HDAC8, Homo sapiens, UniProt Q9BY41)", "assay": "enzyme activity, inhibitor, fluorescence", "IC50": "2100 nM"}
{"SMILES": "COCCCN1CCc2c(Cc3ccc(Cl)cc3)[nH]c3c(OC(F)F)ccc(c23)C1=O", "target": "cGMP-dependent 3',5'-cyclic phosphodiesterase (PDE2A, Homo sapiens, UniProt O00408)", "assay": "enzyme activity, inhibitor", "IC50": "> 10000 nM"}
{"SMILES": "C=C(NC(=O)C(=C)NC(=O)c1csc(C2=NC3c4csc(n4)C4NC(=O)c5csc(n5)C(C(C)(O)C(C)O)NC(=O)C5CSC(=N5)C(=CC)NC(=O)C(C(C)O)NC(=O)c5csc(n5)C3(CC2)NC(=O)CNC(=O)C(=C)NC(=O)C(C)NC(=O)C(C(C)CC)NC2C=Cc3c(C(C)O)cc(nc3C2O)C(=O)OC4C)n1)C(N)=O (stereo not drawn)", "target": "Proteasome subunit beta type-6 (PSMB6, Homo sapiens, UniProt P28072)", "assay": "caspase-like activity, inhibitor", "test system": "purified 20S proteasome", "setting": "15 min preincubation, 37 °C, with: Ac-Nle-Pro-Nle-Asp-AMC substrate", "IC50": "480 ± 40 nM"}
{"SMILES": "C[C@H]1CN2C(NC(=O)c3cccnc3)=Nc3ccccc3C2=N1", "target": "Phosphatidylinositol 4,5-bisphosphate 3-kinase catalytic subunit beta isoform (PIK3CB, Homo sapiens, UniProt P42338)", "assay": "enzyme activity, inhibitor, radiometric", "IC50": "> 10000 nM"}
{"SMILES": "CCC(NC(=O)C(CC(C)C)NC(=O)CCc1ccccc1)C(=O)C(=O)NCc1cc(F)cc(OC)c1 (stereo not drawn)", "target": "Calpain-1 catalytic subunit (Capn1, Mus musculus, UniProt O35350)", "assay": "enzyme activity, inhibitor", "test system": "mouse pons-cerebellum membranes", "setting": "with: calcium 20 µM", "IC50": "3580 nM"}
{"SMILES": "O=C(CN1CCN(c2nsc3ccccc23)CC1)N1CCC(=C2c3ncccc3CCc3cc(Cl)cc(Br)c32)CC1", "target": "Protein farnesyltransferase (Homo sapiens, UniProt P49354+P49356)", "assay": "enzyme activity, inhibitor", "IC50": "34000 nM"}
{"SMILES": "OCC[S+](C[C@@H](O)[C@@H](O)CO)C(CO)CO (single isomer, unassigned)", "target": "Sucrase-isomaltase, intestinal (Si, Rattus norvegicus, UniProt P23739)", "assay": "isomaltase activity", "test system": "rat intestinal brush border vesicles", "setting": "30 min, pH 6.0, 37 °C, with: substrate 7.4 mM", "IC50": "> 271000 nM"}
{"SMILES": "CCCCCCCCCCCCCCCC(=O)N[C@@H](CCCCN)C(=O)N[C@@H](CCCCN)C(=O)N[C@@H](CO)C(=O)N[C@@H](CCCNC(=N)N)C(=O)N[C@@H](C)C(=O)N[C@@H](CC(C)C)C(=O)N[C@@H](Cc1ccccc1)C(N)=O", "target": "Proteinase-activated receptor 1 (F2R, Homo sapiens, UniProt P25116)", "assay": "platelet aggregation, antagonist", "test system": "gel-filtered human platelets", "setting": "with: SFLLRN 2.5 µM", "IC50": "500 nM"}
{"SMILES": "O=C(c1c[nH]c2ccccc12)N1CCC(O)(c2ccc(Cl)cc2)CC1", "target": "CatSper channel complex", "assay": "calcium influx, inhibitor, FLIPR", "test system": "human sperm", "setting": "with: 3 µM progesterone", "IC50": "> 100000 nM"}
{"SMILES": "CC(C)=CCN=C(N)NCCC[C@@H](NC(=O)CCCc1ccc(O)cc1)C(=O)N[C@@H](Cc1ccccc1)C(O)CC(=O)N[C@@H](Cc1ccc(O)cc1)C(=O)O (stereo in doubt)", "target": "Caspase-9 (CASP9, Homo sapiens, UniProt P55211)", "assay": "enzyme activity, inhibitor", "IC50": "84000 nM"}
{"SMILES": "N=C(N)NCCC[C@@H]1NC(=O)[C@H](Cc2c[nH]c3ccccc23)NC(=O)[C@H](CCCNC(=N)N)NC(=O)[C@H](Cc2c[nH]c3ccccc23)NC(=O)[C@H](CCCNC(=N)N)NC(=O)[C@H](Cc2c[nH]c3ccccc23)NC(=O)[C@H](CCCNC(=N)N)NC(=O)[C@H](Cc2c[nH]c3ccccc23)NC(=O)[C@H](CCCNC(=N)N)NC(=O)[C@H](Cc2c[nH]c3ccccc23)NC(=O)[C@H](CCCNC(=N)N)NC(=O)[C@H](Cc2c[nH]c3ccccc23)NC(=O)[C@H](CCCNC(=N)N)NC(=O)[C@H](Cc2c[nH]c3ccccc23)NC(=O)[C@H](CCCNC(=N)N)NC(=O)[C@H](Cc2c[nH]c3ccccc23)NC(=O)[C@H](CCCNC(=N)N)NC(=O)[C@H](Cc2c[nH]c3ccccc23)NC1=O", "target": "Protein kinase C alpha type (PRKCA, Homo sapiens, UniProt P17252)", "assay": "enzyme activity, inhibitor", "IC50": "2860 nM"}
{"SMILES": "CCc1c2ccccc2cn2nc(-c3ccc(C)cc3)nc12", "target": "Maternal embryonic leucine zipper kinase (MELK, Homo sapiens, UniProt Q14680)", "assay": "inhibitor", "IC50": "4820 nM"}
{"SMILES": "C[C@]12C[C@H](c3ccc(C4CC4)cc3)C3=C4CCC(=O)C=C4CC[C@H]3[C@@H]1CC[C@@]2(O)C(F)(F)C(F)(F)F", "target": "Progesterone receptor (PGR, Homo sapiens, UniProt P06401)", "assay": "reporter gene, antagonist, luciferase", "IC50": "0.05 nM"}
{"SMILES": "O=C(Nc1ccc(-c2nc(-c3ccccc3)cs2)cc1)C1CCN(Cc2cccc([N+](=O)[O-])c2)CC1", "target": "FAAH", "assay": "enzyme activity, inhibitor, fluorescence", "setting": "pH 8, with preincubation", "IC50": "286 nM"}
{"SMILES": "O=C(Nc1ccccc1)N1CCN(Cc2ccc3ccccc3n2)CC1", "target": "FAAH", "assay": "enzyme activity, inhibitor, fluorescence", "setting": "pH 8, with preincubation", "IC50": "4 nM"}
{"SMILES": "Cc1cc2c(c(O)c1O)C(=O)c1c(O)cc(O)cc1C2=O", "target": "5-hydroxytryptamine receptor 1A (HTR1A, Homo sapiens, UniProt P08908)", "assay": "calcium signal, antagonist", "IC50": "84200 nM"}
{"SMILES": "CC(C)c1ccc(-c2nc(SCc3cn(CC(=O)NC(=O)Nc4ccccn4)nn3)nc(Nc3ccccc3)c2C#N)cc1", "target": "Lysine-specific histone demethylase 1A (KDM1A, Homo sapiens, UniProt O60341)", "assay": "enzyme activity, inhibitor, fluorescence", "IC50": "> 10000 nM"}
{"SMILES": "Cc1ccc(C(=O)NC(=S)Nc2nc(-c3ccccc3)cc(-c3ccc(Cl)cc3)n2)cc1", "target": "Proteinase K (PROK, Engyodontium album, UniProt P06873)", "assay": "inhibitor", "IC50": "1860 ± 71 nM"}
{"SMILES": "CCOC(=O)C1CCCN(C(=O)c2ccc(NC(=O)NC34CC5CC(C)(CC(C)(C5)C3)C4)cc2)C1 (stereo not drawn)", "target": "Bifunctional epoxide hydrolase 2 (EPHX2, Homo sapiens, UniProt P34913)", "assay": "enzyme activity, inhibitor", "IC50": "0.21 nM"}
{"SMILES": "C[C@](C(=O)NC1CCOCC1)(c1cncnc1)N(C(=O)[C@H](F)Cl)c1ccc(OC(F)(F)Cl)cc1", "target": "Cytochrome P450 1A2 (CYP1A2, Homo sapiens, UniProt P05177)", "assay": "enzyme activity, inhibitor", "setting": "10 (unit not given)", "IC50": "> 50000 nM"}
{"SMILES": "O=[N+]([O-])c1ccc(Cn2cc(Cn3cc(CO)nn3)nn2)cc1", "target": "1-phosphatidylinositol 4,5-bisphosphate phosphodiesterase delta-1, PH domain (Plcd1, Rattus norvegicus, UniProt P10688)", "assay": "PI(4,5)P2 binding, competitive SPR", "setting": "PH domain 500 nM", "IC50": "53 ± 9 nM"}
{"SMILES": "CN1Cc2c(Cl)cc(Cl)cc2C(c2cccc(S(=O)(=O)NCCOCCOCCNC(=O)C(O)C(O)C(=O)NCCOCCOCCNS(=O)(=O)c3cccc(C4CN(C)Cc5c(Cl)cc(Cl)cc54)c3)c2)C1 (stereo not drawn)", "target": "Sodium/hydrogen exchanger 3 (Homo sapiens, UniProt P48764)", "assay": "ion flux, inhibitor", "IC50": "63.1 nM"}
{"SMILES": "C[C@@H]1NC(=O)[C@H](CCC(=O)O)NC(=O)[C@H](C)NC(=O)[C@H](CCCCN)NC(=O)[C@@H]2CSSC[C@H](NC(=O)[C@H](CO)NC(=O)[C@@H]3CCCN3C(=O)[C@H](CCCCN)NC1=O)C(=O)N[C@@H](Cc1ccc(O)cc1)C(=O)N[C@@H](CC(=O)O)C(=O)NCC(=O)N[C@@H](CC(=O)O)C(=O)N[C@@H](CC(=O)O)C(=O)N2", "target": "Lymphocyte function-associated antigen 3 (CD58, Homo sapiens, UniProt P19256)", "assay": "cell adhesion, inhibitor", "test system": "Jurkat and OVCAR-3", "IC50": "> 50000 nM"}
{"SMILES": "CCCC[C@H](NC(C)=O)C(=O)NCC(=O)N[C@@H](Cc1c[nH]c2ccccc12)C(=O)N[C@@H](CCCC)C(=O)N[C@@H](CC(=O)O)C(=O)N[C@@H](Cc1ccccc1)C(N)=O", "target": "Gastrin/cholecystokinin type B receptor (CCKBR, Homo sapiens, UniProt P32239)", "assay": "ligand displacement", "IC50": "26 nM"}
{"note": "For quick reference, copied from above:"}
{"SMILES": "CCC(NC(=O)C(CC(C)C)NC(=O)CCc1ccccc1)C(=O)C(=O)NCc1cc(F)cc(OC)c1 (stereo not drawn)", "target": "Calpain-1 catalytic subunit (Capn1, Mus musculus, UniProt O35350)", "assay": "enzyme activity, inhibitor", "test system": "mouse pons-cerebellum membranes", "setting": "with: calcium 20 µM", "IC50": "3580 nM"}
{"SMILES": "O=C(Nc1ccc(-c2nc(-c3ccccc3)cs2)cc1)C1CCN(Cc2cccc([N+](=O)[O-])c2)CC1", "target": "FAAH", "assay": "enzyme activity, inhibitor, fluorescence", "setting": "pH 8, with preincubation", "IC50": "286 nM"}
